Results gathered from unrelated publications.
Numbered parts are unrelated; each lists some results of a single study.
Chain of UniProt Q9NQU5 (whole entry, looked up): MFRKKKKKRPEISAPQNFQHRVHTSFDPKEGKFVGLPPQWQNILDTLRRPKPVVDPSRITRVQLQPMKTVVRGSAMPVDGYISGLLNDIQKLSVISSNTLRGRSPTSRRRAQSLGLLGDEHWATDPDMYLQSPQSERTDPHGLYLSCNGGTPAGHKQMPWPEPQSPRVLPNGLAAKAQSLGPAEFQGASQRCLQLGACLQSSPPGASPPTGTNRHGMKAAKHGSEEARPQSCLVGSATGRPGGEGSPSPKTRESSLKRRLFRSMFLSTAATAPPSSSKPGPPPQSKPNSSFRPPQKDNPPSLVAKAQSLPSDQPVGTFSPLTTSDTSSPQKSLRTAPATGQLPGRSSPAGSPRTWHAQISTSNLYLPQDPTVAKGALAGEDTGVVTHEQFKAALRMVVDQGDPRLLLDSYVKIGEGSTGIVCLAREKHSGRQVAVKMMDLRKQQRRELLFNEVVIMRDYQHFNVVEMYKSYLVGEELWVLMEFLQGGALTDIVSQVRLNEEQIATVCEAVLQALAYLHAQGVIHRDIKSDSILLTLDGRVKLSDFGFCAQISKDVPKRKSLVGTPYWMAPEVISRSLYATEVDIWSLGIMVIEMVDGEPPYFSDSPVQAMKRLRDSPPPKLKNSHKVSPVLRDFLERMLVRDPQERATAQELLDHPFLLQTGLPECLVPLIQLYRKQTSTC
Chain of UniProt Q9P0L2 (whole entry, looked up): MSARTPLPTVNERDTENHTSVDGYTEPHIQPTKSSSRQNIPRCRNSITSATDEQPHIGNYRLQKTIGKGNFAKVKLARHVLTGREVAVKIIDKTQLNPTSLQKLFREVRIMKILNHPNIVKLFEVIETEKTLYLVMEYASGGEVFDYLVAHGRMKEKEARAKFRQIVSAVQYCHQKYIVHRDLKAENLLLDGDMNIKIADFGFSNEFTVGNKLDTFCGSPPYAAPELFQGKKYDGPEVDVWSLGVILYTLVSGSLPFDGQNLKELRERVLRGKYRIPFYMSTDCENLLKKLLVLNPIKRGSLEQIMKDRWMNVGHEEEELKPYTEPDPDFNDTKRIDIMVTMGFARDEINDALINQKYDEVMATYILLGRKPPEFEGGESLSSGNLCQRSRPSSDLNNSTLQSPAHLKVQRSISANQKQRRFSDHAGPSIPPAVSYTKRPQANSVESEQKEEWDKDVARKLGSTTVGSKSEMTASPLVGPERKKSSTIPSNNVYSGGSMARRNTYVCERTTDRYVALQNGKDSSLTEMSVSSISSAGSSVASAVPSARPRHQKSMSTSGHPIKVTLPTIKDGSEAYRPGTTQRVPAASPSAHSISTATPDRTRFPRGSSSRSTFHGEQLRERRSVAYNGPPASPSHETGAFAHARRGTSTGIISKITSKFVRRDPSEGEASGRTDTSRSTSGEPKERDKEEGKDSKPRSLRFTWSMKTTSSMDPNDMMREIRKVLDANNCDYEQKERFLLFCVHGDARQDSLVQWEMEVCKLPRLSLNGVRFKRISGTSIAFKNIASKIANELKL
Chain of UniProt Q96SB4 (whole entry, looked up): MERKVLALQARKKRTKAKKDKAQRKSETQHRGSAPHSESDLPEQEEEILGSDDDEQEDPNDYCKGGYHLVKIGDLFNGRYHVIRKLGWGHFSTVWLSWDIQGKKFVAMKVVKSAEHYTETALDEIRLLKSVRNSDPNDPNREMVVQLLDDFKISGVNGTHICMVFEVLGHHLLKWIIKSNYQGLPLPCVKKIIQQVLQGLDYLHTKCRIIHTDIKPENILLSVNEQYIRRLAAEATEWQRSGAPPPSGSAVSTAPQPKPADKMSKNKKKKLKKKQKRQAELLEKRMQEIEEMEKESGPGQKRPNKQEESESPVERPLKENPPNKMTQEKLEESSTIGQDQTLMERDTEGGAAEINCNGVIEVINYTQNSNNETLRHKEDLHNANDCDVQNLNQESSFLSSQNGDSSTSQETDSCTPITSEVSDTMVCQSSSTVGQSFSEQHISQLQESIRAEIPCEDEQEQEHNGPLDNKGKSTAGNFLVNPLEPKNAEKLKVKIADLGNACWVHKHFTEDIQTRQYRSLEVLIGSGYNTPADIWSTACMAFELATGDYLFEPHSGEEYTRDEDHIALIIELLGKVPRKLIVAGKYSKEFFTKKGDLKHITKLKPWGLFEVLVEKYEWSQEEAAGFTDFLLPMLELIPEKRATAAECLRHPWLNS
Chain of UniProt Q9NSY1 (whole entry, looked up): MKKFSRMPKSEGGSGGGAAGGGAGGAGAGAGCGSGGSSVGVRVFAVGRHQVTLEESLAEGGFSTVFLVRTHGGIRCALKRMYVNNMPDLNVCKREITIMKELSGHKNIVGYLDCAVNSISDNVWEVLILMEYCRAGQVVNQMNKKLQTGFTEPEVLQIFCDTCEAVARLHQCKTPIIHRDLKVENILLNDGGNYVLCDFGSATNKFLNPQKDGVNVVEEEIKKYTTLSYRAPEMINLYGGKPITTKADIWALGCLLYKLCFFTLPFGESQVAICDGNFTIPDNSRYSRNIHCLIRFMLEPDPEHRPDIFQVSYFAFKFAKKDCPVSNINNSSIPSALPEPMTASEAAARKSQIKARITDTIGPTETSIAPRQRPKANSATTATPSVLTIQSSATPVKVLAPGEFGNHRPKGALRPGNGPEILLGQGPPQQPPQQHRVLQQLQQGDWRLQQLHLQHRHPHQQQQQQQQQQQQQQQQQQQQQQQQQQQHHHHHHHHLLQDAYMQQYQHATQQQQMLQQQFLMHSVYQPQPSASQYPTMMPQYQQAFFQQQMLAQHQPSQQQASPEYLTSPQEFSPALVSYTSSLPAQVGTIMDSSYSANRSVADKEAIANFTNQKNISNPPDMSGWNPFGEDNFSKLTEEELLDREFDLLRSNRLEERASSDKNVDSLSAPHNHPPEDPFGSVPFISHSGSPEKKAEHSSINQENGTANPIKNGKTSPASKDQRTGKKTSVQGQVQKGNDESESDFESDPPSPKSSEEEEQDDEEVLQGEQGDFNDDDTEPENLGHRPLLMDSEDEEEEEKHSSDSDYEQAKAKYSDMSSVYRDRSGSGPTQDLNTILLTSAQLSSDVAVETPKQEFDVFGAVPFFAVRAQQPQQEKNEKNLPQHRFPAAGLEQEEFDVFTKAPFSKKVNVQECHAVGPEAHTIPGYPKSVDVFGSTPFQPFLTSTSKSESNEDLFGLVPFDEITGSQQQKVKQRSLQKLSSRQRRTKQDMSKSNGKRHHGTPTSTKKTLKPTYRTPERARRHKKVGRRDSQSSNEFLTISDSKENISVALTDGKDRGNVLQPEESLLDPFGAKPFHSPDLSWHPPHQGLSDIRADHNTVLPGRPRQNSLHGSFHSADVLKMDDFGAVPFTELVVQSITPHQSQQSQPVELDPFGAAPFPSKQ
Chain of UniProt Q6XUX3 (whole entry, looked up): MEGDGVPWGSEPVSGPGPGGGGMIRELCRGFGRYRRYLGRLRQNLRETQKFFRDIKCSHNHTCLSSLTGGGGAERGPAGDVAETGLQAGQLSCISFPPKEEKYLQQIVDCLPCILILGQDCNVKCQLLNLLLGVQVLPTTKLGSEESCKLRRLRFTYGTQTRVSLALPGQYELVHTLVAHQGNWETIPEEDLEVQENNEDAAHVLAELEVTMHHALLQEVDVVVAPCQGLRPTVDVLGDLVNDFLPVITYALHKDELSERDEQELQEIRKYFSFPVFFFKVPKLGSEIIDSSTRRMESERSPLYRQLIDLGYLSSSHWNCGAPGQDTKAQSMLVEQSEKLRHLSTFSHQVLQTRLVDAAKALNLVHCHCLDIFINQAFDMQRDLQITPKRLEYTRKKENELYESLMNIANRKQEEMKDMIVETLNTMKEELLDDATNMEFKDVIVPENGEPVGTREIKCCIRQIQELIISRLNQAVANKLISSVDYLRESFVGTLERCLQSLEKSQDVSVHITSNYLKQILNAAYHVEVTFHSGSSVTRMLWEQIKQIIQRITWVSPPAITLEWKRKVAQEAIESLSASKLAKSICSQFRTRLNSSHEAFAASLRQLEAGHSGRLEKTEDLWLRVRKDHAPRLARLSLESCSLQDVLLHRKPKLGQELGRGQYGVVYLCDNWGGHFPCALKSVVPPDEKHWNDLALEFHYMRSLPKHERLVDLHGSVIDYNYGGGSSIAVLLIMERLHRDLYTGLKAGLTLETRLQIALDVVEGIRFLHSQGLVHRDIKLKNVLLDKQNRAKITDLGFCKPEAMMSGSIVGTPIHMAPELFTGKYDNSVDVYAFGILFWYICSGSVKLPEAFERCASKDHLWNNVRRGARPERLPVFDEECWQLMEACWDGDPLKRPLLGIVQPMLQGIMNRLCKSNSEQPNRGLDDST

Set 1
Compound: CC(C)[C@H](CO)Nc1nc(Nc2cccc(Cl)c2)c2ncn(C(C)C)c2n1
Effect on: enzyme activity
Action: inhibitor
Concentration: 0.5 µM
Reference: control
target | remaining activity [%]
SRPK1 (Homo sapiens, UniProt Q96SB4) | 77
MELK (Homo sapiens, UniProt Q14680) | 69.5
PAK1 (Homo sapiens, UniProt Q13153) | 92.8
CLK2 (Homo sapiens, UniProt P49760) | 21.9
PRKCQ (Homo sapiens, UniProt Q04759) | 127
MARK1 (Homo sapiens, UniProt Q9P0L2) | 94.5
IGF1R (Homo sapiens, UniProt P08069) | 100
FLT1 (Homo sapiens, UniProt P17948) | 102
TYRO3 (Homo sapiens, UniProt Q06418) | 98.9
PAK6 (Homo sapiens, UniProt Q9NQU5) | 111
YES1 (Homo sapiens, UniProt P07947) | 21.2
MAP3K20 (Homo sapiens, UniProt Q9NYL2) | 108
PAK5 (Homo sapiens, UniProt Q9P286) | 76.8
CSNK1D (Homo sapiens, UniProt P48730) | 92.2
PRKCZ (Homo sapiens, UniProt Q05513) | 102
CLK1 (Homo sapiens, UniProt P49759) | 67.5
EPHA6 (Homo sapiens, UniProt Q9UF33) | 93.8
SGK2 (Homo sapiens, UniProt Q9HBY8) | 103

Set 2
Target: PABPC1L2, full length, GST fusion (mouse, UniProt A0ABA7IW68)
Method: RNAcompete
Molecule type: RNA
Matrix: in vitro
Concentration: 20 nM
Notes: 7-mer, probes averaged, single round
Reference: mean of 7-mers
Reading: higher = stronger binding
Residues (chain): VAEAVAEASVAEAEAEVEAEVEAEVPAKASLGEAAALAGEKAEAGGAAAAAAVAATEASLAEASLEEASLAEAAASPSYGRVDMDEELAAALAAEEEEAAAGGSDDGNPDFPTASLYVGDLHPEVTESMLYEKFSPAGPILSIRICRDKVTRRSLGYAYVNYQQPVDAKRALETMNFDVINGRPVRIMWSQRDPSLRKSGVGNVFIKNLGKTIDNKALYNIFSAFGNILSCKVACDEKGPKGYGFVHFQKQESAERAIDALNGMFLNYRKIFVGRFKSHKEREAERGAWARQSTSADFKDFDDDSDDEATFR
Strand | 7-mer Z-score
UAUGAGU | -0.267
ACAAAGA | 1.74
UGAAACA | 0.512
GCUGCUU | -0.316
CCCACCG | -0.416
UUAUACG | -0.132
ACAACUU | -0.132
UUCCAAA | 0.416

Set 3
SMILES: CC(C)CC(=O)N1CCc2nc(-c3ccc(Br)cc3)nc(N(C)Cc3ccccc3)c2C1
Effect on: cell-free assay
Method: competition with immobilised ligand
Concentration: 0.1 µM
target | remaining binding
PHKG1 (Homo sapiens, UniProt Q16816) | 100%
BMP2K (Homo sapiens, UniProt Q9NSY1) | 99%
EPHA2 (Homo sapiens, UniProt P29317) | 100%
MATK (Homo sapiens, UniProt P42679) | 100%
PIK3C2B (Homo sapiens, UniProt O00750) | 100%
MAP3K20 (Homo sapiens, UniProt Q9NYL2) | 100%
PAK6 (Homo sapiens, UniProt Q9NQU5) | 100%
DSTYK (Homo sapiens, UniProt Q6XUX3) | 100%

Set 4
Target: Interferon regulatory factor 7, full length, phosphomimetic (IRF7, Homo sapiens, UniProt Q92985, residues 1-503, S471D/S472D/S475D/S476D/S477D/S483D/S484D/S487D)
Chain of UniProt Q92985 (whole entry, unmodified, looked up): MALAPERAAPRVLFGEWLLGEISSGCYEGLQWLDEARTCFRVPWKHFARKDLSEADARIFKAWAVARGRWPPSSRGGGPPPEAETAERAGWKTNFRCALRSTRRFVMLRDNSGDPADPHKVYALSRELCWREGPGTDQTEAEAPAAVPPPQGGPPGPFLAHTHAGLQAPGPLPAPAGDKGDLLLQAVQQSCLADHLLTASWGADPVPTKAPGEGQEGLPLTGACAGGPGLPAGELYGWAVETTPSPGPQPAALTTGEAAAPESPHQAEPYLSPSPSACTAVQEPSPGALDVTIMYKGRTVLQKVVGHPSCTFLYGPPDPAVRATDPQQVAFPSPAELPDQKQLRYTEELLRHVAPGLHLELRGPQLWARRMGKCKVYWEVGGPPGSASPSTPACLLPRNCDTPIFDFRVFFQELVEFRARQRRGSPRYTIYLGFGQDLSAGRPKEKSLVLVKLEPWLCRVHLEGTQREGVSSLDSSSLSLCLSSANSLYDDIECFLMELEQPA
Method: protein-binding microarray
Molecule type: double-stranded DNA, one strand shown
Matrix: in vitro
Concentration: 2200 nM top
Notes: 60-bp whole probe
Together with: salmon DNA 0.4 mg/ml
Reference: random background probes
Reading: higher = stronger binding
Constant ends, left off below: GCCTAGCAC … GTCTTGATTCGCTTGACGCTGCTG
Strand | fitted relative affinity
TTAGGACTGGGGTTTCTGTTAGTGCTA | 0.62 z-score
TCAATTCTGAAAATGGAACTGTGCTAG | 0.106 z-score
GACCTTTTTAAGATCTGTGCGTGCTAG | 0.549 z-score
TCAAGTCTGGGCTACAACACTGTGCTA | -0.802 z-score
TTAGGTATCGAATTTCGGTTAGTGCTA | 2.78 z-score
GACTGACTGCTACTGCTGACGTGCTAG | -0.0287 z-score
TTAGGTATAGGTCTCGGTTAGTGCTAG | 0.27 z-score
TGAGGTTTCCTTCTCCTTTAGTGCTAG | 2.05 z-score

Mixed results
SMILES | matrix | quantity | value
CCOC(=O)[C@@H]1CSCC(=O)N[C@H](CC)C(=O)N(C)[C@@H](C)C(=O)N[C@H](CC(C)C)C(=O)N2CCC[C@H]2C(=O)N(CC(C)C)CC(=O)N[C@@H](CC(C)C)C(=O)N(C)[C@@H](C)C(=O)N[C@@H](CC(C)C)C(=O)N1C | hydrocarbon/water | logD | 0.662

Excerpt of the above (set 4):
Strand | fitted relative affinity
GACCTTTTTAAGATCTGTGCGTGCTAG | 0.549 z-score
TCAAGTCTGGGCTACAACACTGTGCTA | -0.802 z-score
TTAGGTATCGAATTTCGGTTAGTGCTA | 2.78 z-score
GACTGACTGCTACTGCTGACGTGCTAG | -0.0287 z-score
TTAGGTATAGGTCTCGGTTAGTGCTAG | 0.27 z-score
